{"data": "Measurements from different studies", "kasA": "3-oxoacyl-[acyl-carrier-protein] synthase 1 (kasA, Mycobacterium tuberculosis, UniProt P9WQD9)", "note": "± marks the error that the study gave."}
{"SMILES": "[2H]c1c([2H])c([C@]2([2H])CCCN2C(=O)C(C)(C)Oc2ccc3cn[nH]c3c2)c([2H])c([2H])c1C([2H])([2H])[2H]", "target or system": "SRPK1 (Homo sapiens, UniProt Q96SB4)", "test": "KINOMEscan", "setting": "1 µM", "how to read": "relative to: DMSO control", "endpoint": "remaining binding", "value": "100%"}
{"SMILES": "Oc1ccc2c3c1O[C@H]1[C@@H](O)CC[C@@]4(O)[C@@H](C2)N(CC2CCC2)CC[C@]314", "target or system": "Adhesion G protein-coupled receptor F5 (ADGRF5, Homo sapiens, UniProt Q8IZF2)", "test": "β-arrestin recruitment, TANGO luminescence, refers to: GPR116", "setting": "concentration not given", "how to read": "relative to: basal luminescence", "endpoint": "log2 fold change", "value": -0.00187}
{"SMILES": "CCN(CC)CCNC(=O)c1ccc(NC(C)=O)cc1", "target or system": "kasA", "test": "thermal stabilization, nanoDSF", "setting": "100 µM", "endpoint": "ΔTm", "value": "-0.07 °C"}
{"SMILES": "O=C(Nc1cnccc1Cl)N1CCN(Cc2ccc3c(c2)OC(F)(F)O3)CC1", "target or system": "LTB4R (Homo sapiens, UniProt Q15722)", "test": "radioligand binding", "setting": "50 µM, together with: [3H]LTB4", "endpoint": "inhibition of binding", "value": "0%"}
{"SMILES": "CC[C@H](C)[C@H](NC(=O)CNC(=O)[C@@H](N)CCCCN)C(=O)N[C@@H](CC(C)C)C(=O)N[C@@H](CCCCN)C(=O)N[C@@H](CCCNC(=N)N)C(=O)N[C@@H](CCC(=O)O)C(=O)N[C@@H](CCCCN)C(=O)N[C@@H](CCCNC(=N)N)C(=O)N[C@@H](CC(C)C)C(=O)N[C@@H](CCCNC(=N)N)C(=O)N[C@@H](CCCNC(=N)N)C(=O)N[C@@H](CCCCN)C(=O)N[C@@H](CC(N)=O)C(=O)N[C@H](C(=O)N[C@@H](Cc1c[nH]cn1)C(=O)N[C@@H](Cc1c[nH]c2ccccc12)C(=O)N1CCC[C@H]1C(=O)N[C@@H](CCC(=O)O)C(=O)N[C@@H](CCC(=O)O)C(=O)NCC(=O)N[C@@H](CCCCN)C(=O)N[C@@H](CC(C)C)C(=O)N[C@@H](CCCNC(=N)N)C(=O)N[C@@H](CCC(=O)O)C(=O)N[C@@H](Cc1ccc(O)cc1)C(=O)N[C@@H](Cc1ccccc1)C(=O)N[C@@H](Cc1ccc(O)cc1)C(=O)N[C@@H](Cc1ccccc1)C(=O)N[C@@H](CCC(=O)O)C(=O)N[C@@H](CC(C)C)C(=O)N[C@@H](CC(=O)O)C(=O)N[C@@H](CCC(=O)O)C(=O)N[C@@H](C)C(=O)N[C@@H](CCC(=O)O)C(=O)N[C@@H](CCCNC(=N)N)C(=O)N[C@H](C(=O)N[C@@H](CC(N)=O)C(=O)N[C@H](C(=O)O)C(C)C)C(C)C)C(C)C", "target or system": "HeLa and HEK-293T cells", "test": "phosphatase bead binding, competitive inhibitor, PIB pulldown iBAQ LC-MS/MS, refers to: STRN4", "setting": "concentration not given", "how to read": "relative to: untreated control", "endpoint": "log2 fold change", "value": -0.24}
{"SMILES": "CCn1ncc2ccc(NS(=O)(=O)c3cccc(Cl)c3O)cc21", "target or system": "kasA", "test": "thermal stabilization, nanoDSF", "setting": "100 µM", "endpoint": "ΔTm", "value": "0.07 °C"}
{"SMILES": "C[C@H]1CN(c2n[nH]c3nc(N[C@H]4CC[C@H](NS(=O)(=O)CCC(F)(F)F)CC4)ncc23)CCO1", "target or system": "CDC37 (Homo sapiens, UniProt Q16543)", "test": "inhibitor, Kinobeads competition profiling", "setting": "0.032 µM", "how to read": "relative to: vehicle", "endpoint": "relative abundance", "value": 0.95}
{"SMILES": "O=C(Nc1cccnn1)N1CCC(=Cc2cccc(Oc3ccc(C(F)(F)F)cn3)c2)CC1", "target or system": "MAPKAPK5 (Homo sapiens, UniProt Q8IW41)", "test": "kinase activity, inhibitor", "setting": "10 µM, together with: PRAK peptide substrate", "endpoint": "inhibition", "value": "-12%"}
{"SMILES": "O=C(c1ccc(Cl)cc1)N1CCN2C(=O)N(OC(=O)N3CCOc4ccccc43)C(=O)C2C1 (stereo not drawn)", "target or system": "Acyl-protein thioesterase 1 (Homo sapiens, UniProt O75608)", "test": "enzyme activity, inhibitor, MS-based ABPP", "system": "SW-620 in situ", "setting": "10 µM, 2 h, 37 °C", "how to read": "relative to: compound over DMSO, lower = stronger inhibition", "endpoint": "median ratio", "value": 1.12}
{"SMILES": "CN1CCN(c2cc(-c3ccncc3)c(-c3ccc4ccccc4c3)nn2)CC1", "target or system": "ADORA3 (Homo sapiens, UniProt P0DMS8)", "test": "agonist, FLIPR", "setting": "12.5 µM", "endpoint": "activation", "value": "0.1%"}
{"SMILES": "C[C@@]1(O)CC[C@@]2(C)[C@@H](CC[C@@H]3[C@@H]2CC[C@]2(C)[C@@H]([N+](=O)[O-])CC[C@@H]32)C1", "test": "[3H]flunitrazepam binding, positive modulator", "system": "rat cerebral cortex homogenate", "how to read": "relative to: allopregnanolone Emax", "endpoint": "Emax", "value": "99 ± 7%"}
{"SMILES": "Cc1cc(S(=O)(=O)Nc2ccc3cnn(C(C)C)c3c2)c(C)s1", "target or system": "kasA", "test": "thermal stabilization, nanoDSF", "setting": "100 µM", "endpoint": "ΔTm", "value": "0.13 °C"}
{"SMILES": "CC(NC(C)(C)C)C(=O)c1cccc(Cl)c1 (stereo not drawn)", "target or system": "Voltage-dependent P/Q-type calcium channel subunit alpha-1A (Homo sapiens, UniProt O00555)", "test": "ion current, antagonist, automated patch clamp", "endpoint": "IC30", "value": "10.5 µM"}
{"SMILES": "COc1ccc(N2C(=O)N(c3c(C)cccc3Cl)Cc3cnc(Nc4ccc(C5CCN(C)CC5)cc4OC)nc32)nc1", "target or system": "PRKCB (Homo sapiens, UniProt P05771)", "test": "kinase activity, inhibitor", "setting": "0.5 µM, kinase PKC-BETA1", "endpoint": "inhibition", "value": "4.31%"}
{"SMILES": "CCn1ncc2ccc(NS(=O)(=O)c3cccc(C(=O)O)c3)cc21", "target or system": "kasA", "test": "thermal stabilization, nanoDSF", "setting": "100 µM", "endpoint": "ΔTm", "value": "-0.18 °C"}
{"note": "For quick reference, copied from above:"}
{"SMILES": "C[C@H]1CN(c2n[nH]c3nc(N[C@H]4CC[C@H](NS(=O)(=O)CCC(F)(F)F)CC4)ncc23)CCO1", "target or system": "CDC37 (Homo sapiens, UniProt Q16543)", "test": "inhibitor, Kinobeads competition profiling", "setting": "0.032 µM", "how to read": "relative to: vehicle", "endpoint": "relative abundance", "value": 0.95}
{"SMILES": "CCN(CC)CCNC(=O)c1ccc(NC(C)=O)cc1", "target or system": "kasA", "test": "thermal stabilization, nanoDSF", "setting": "100 µM", "endpoint": "ΔTm", "value": "-0.07 °C"}
